Measurements pooled from the literature.
Parts stem from different laboratories: compare values within a part only. ± gives the spread as reported.

Series 1
Target: Replicase polyprotein 1ab, main protease (rep, Severe acute respiratory syndrome coronavirus 2, UniProt P0DTD1)
Observed: reporter gene (Gaussia luciferase)
Mode: inhibitor
Concentration: 20 µM
SMILES | inhibition
Cc1ccc(-c2ccc3c(ccc4sc5c(c43)NC[C@@H](C)NC5=O)n2)cn1 | 1.73%
O=C(NN1C(=O)[C@@H]2[C@@H]3C=C[C@@H]([C@H]4C[C@@H]34)[C@@H]2C1=O)c1ccc(C(F)(F)F)cc1 | 1.26%
Cc1[nH]c(/C=C2\C(=O)Nc3ccc(F)cc32)c(C)c1C(=O)NCCN1CCCC1.O=P(O)(O)O | 1.48%

Single results of other studies
rep main protease: Replicase polyprotein 1ab, main protease (rep, Severe acute respiratory syndrome coronavirus 2, UniProt P0DTD1)
Compound | target or system | test | system | conditions | measurement | value
NC(=O)c1ccc(/C=C/C(=O)N2C[C@H]3CCC[C@@H](C2)N3C(=O)CCn2c(O)ccc2O)cc1 | rep main protease | enzyme activity, inhibitor | – | 5 µM, run 1 | inhibition | 17.2%
Nc1ncnc2c([C@@H]3N[C@H](CO)[C@@H](O)[C@H]3O)c[nH]c12 | Zaire ebolavirus | antibody staining | human macrophages | 0.8 µM | antigen-positive cells | 49.2%
Cc1ccc(C(=O)N2CC3(CCC3)C[C@H]2CNC(=O)c2cncc3[nH]cnc23)cc1O | rep main protease | enzyme activity, inhibitor | – | 5 µM, run 2 | inhibition | 16.1%
Cn1cnc(Cn2c(=O)[nH]/c(=N\c3cc4cn(C)nc4cc3Cl)n(Cc3cc(F)c(F)cc3F)c2=O)n1 | – | – | human, severe renal impairment, plasma | oral, 375 mg single dose | Vz/F | 24 L
O=C(NC[C@H]1Cc2ccccc2CN1C(=O)c1n[nH]c(=O)[nH]c1=O)c1cccc2ccncc12 | rep main protease | enzyme activity, inhibitor | – | 5 µM, run 1 | inhibition | 13%
CC[C@H](C)[C@H](NC(=O)[C@H](CC(C)C)NC(=O)[C@H](Cc1c[nH]c2ccccc12)NC(=O)[C@H](CCC(N)=O)NC(=O)[C@@H](NC(=O)[C@H](Cc1ccccc1)NC(=O)[C@H](C)NC(=O)[C@H](CCCCNC(=O)COCCOCCNC(=O)COCCOCCNC(=O)CC[C@H](NC(=O)CCCCCCCCCCCCCCCCCCC(=O)O)C(=O)O)NC(=O)[C@H](CCC(N)=O)NC(=O)[C@H](C)NC(=O)[C@@H](NC(=O)[C@H](CCCCN)NC(=O)[C@H](CC(=O)O)NC(=O)[C@H](CC(C)C)NC(=O)C(C)(C)NC(=O)[C@@H](NC(=O)[C@H](CO)NC(=O)[C@H](Cc1ccc(O)cc1)NC(=O)[C@H](CC(=O)O)NC(=O)[C@H](CO)NC(=O)[C@@H](NC(=O)[C@H](Cc1ccccc1)NC(=O)[C@@H](NC(=O)CNC(=O)[C@H](CCC(=O)O)NC(=O)C(C)(C)NC(=O)[C@@H](N)Cc1ccc(O)cc1)[C@@H](C)O)[C@@H](C)O)[C@@H](C)CC)[C@@H](C)CC)C(C)C)C(=O)N[C@@H](C)C(=O)NCC(=O)NCC(=O)N1CCC[C@H]1C(=O)N[C@@H](CO)C(=O)N[C@@H](CO)C(=O)NCC(=O)N[C@@H](C)C(=O)N1CCC[C@H]1C(=O)N1CCC[C@H]1C(=O)N1CCC[C@H]1C(=O)N[C@@H](CO)C(N)=O | – | – | healthy subjects, single ascending dose | 2.5 mg, day 29 | serum amylase | 84.2 ± 23.5 U/L

A few entries again (series 1):
SMILES | inhibition
Cc1ccc(-c2ccc3c(ccc4sc5c(c43)NC[C@@H](C)NC5=O)n2)cn1 | 1.73%
